Results of several laboratories.
Lines come from different studies, so protocols differ. ± marks the error that the study gave.

SMILES = COc1cccc(-c2n[nH]c(SCc3ccccn3)n2)c1OC; system = Sprague-Dawley rats, both sexes; conditions = oral dietary, 100 mg/kg/day, day 90, 3 h; plasma concentration = 10400 ng/mL
SMILES = Cc1cccc(Cn2cc(CO)c3cnccc32)c1; system = rat, plasma; conditions = oral, 100 mg/kg/day, 24 h after first dose; plasma concentration = < 2 ng/mL
SMILES = CC1=NN(c2ccccc2)C(=O)C1; system = rat Sprague-Dawley pups PN4, plasma; conditions = intraperitoneal, 30 mg/kg, 1 h; plasma concentration = 3130 ± 960 ng/mL
SMILES = CC(C)c1nc(N(C)S(C)(=O)=O)nc(-c2ccc(F)cc2)c1/C=C/[C@@H](O)C[C@@H](O)CC(=O)O; system = Wistar albino rat, both sexes, plasma; conditions = oral, 20 mg/kg, 24 h; plasma concentration = 75.3 ng/mL
SMILES = CCOCc1nc(O)c(-c2nnc(Cc3ccc(Cl)cn3)o2)c(O)c1-c1c(OC)cccc1OC; system = rat, anaesthetised, cannulated, plasma; conditions = intravenous infusion, 10 µg/kg/min, 20 min after infusion stop, washout; plasma concentration = 1000 nM
SMILES = CCN(Cc1ccc(F)cc1)c1ccc(CO)c(Cl)c1; system = rat, plasma; conditions = oral, 100 mg/kg/day, 24 h after first dose; plasma concentration = < 2 ng/mL
SMILES = COc1cc(F)c([C@@H]2CNC(=O)[C@H]2NC(=O)Nc2ccccc2)c(F)c1; system = Sprague-Dawley rats, LPS challenge, plasma; conditions = oral, 0.1 mg/kg, 3 h post dose; plasma concentration = 15 ± 6 nM
SMILES = Cc1ccc2c(c1)C(=O)[C@]1(O)CCN(c3ccc4nc(C)ccc4c3)C1=N2; system = rat, plasma; conditions = subcutaneous, 90 mg/kg, 1 h; plasma concentration = 4400 ± 300 nM
SMILES = CC(C)(O)c1coc(S(=O)(=O)NC(=O)Nc2c3c(cc4c2CCC4)CCC3)c1; system = Sprague-Dawley rat, male, plasma; conditions = oral, 2 mg/kg, 2 h; plasma concentration = 165 ng/mL
SMILES = Cc1ccc(S(=O)(=O)n2cc3c4c2C(=O)C(NCc2ccc(Cl)cc2)=CC4=NCC3)cc1; system = Sprague-Dawley rat, plasma; conditions = intravenous, 5 mg/kg, 4 h; plasma concentration = 78.1 ± 60.8 ng/mL

A few entries again:
SMILES = CCN(Cc1ccc(F)cc1)c1ccc(CO)c(Cl)c1; system = rat, plasma; conditions = oral, 100 mg/kg/day, 24 h after first dose; plasma concentration = < 2 ng/mL
